Assay results from different studies.
A part holds a random share of what one study measured. ± gives the spread as reported.

Series 1
Organism: VSVΔG pseudotyped with SARS-CoV-2 S
Effect on: pseudovirus infection
Strain: Wuhan
Tested at: 10 µM
Structure (SMILES) | inhibition [%]
C=CCNC1=C2C[C@@H](C)C[C@H](OC)[C@H](O)[C@@H](C)/C=C(\C)[C@H](OC(N)=O)[C@@H](OC)/C=C\C=C(/C)C(=O)NC(=CC1=O)C2=O | 50
CN(C)c1ccc2nc3ccc(N(C)C)cc3[s+]c2c1 | 61
CC(C)(C)NC(=S)N/N=C/C=N/NC(=S)NC(C)(C)C | 55

Other studies, line by line
rep papain-like protease: Replicase polyprotein 1ab, papain-like protease (rep, Severe acute respiratory syndrome coronavirus 2, UniProt P0DTD1)
rep nsp14: Replicase polyprotein 1ab, nsp14 (rep, Severe acute respiratory syndrome coronavirus 2, UniProt P0DTD1)
Compound | tested on | assay | test system | setting | scale | quantity | result
CC1CNc2c(cccc2S(=O)(=O)N[C@@H](CCCNC(=N)N)C(=O)N2CC[C@@H](C)C[C@@H]2C(=O)O)C1 (stereo partly drawn) | rep papain-like protease |  |  | concentration not given, C111S mutant | baseline: positive control | activity | 16.9%
N#C[C@@]1(n2ccc(N)nc2=O)O[C@H](CO)[C@@H](O)[C@H]1O | SARS-CoV-2 Omicron | viral replication | Calu-3 |  |  | EC90 | 3800 ± 1400 nM
O=C(NC1CCN(c2ncnc3[nH]cnc23)CC1)c1cccc(S(=O)(=O)N2CCCCC2)c1 | rep nsp14 | NSP14 enzyme activity, inhibitor |  | 0.1953 µM |  | inhibition | 1.4%
CCC(CC)COC(=O)[C@H](C)N[P@](=O)(OC[C@H]1O[C@@](C#N)(c2ccc3c(N)ncnn23)[C@H](O)[C@@H]1O)Oc1ccccc1 | SARS-CoV-2 | viral replication | Calu-3, Alpha |  |  | EC50 | 900 ± 1200 nM
Nc1ncnc2c1ncn2[C@@H]1O[C@H](CSCC[C@H](N)C(=O)O)[C@@H](O)[C@H]1O | rep nsp14 | thermal shift |  | 500 µM |  | ΔTm | 10 °C
CCCC[C@@H](C=O)NC(=O)[C@H](CC(C)C)NC(=O)OCc1ccccc1 | rep papain-like protease |  |  | concentration not given, C111S mutant | baseline: positive control | activity | 25.6%

For quick reference, copied from above (other studies, line by line):
Compound | tested on | assay | test system | setting | scale | quantity | result
O=C(NC1CCN(c2ncnc3[nH]cnc23)CC1)c1cccc(S(=O)(=O)N2CCCCC2)c1 | rep nsp14 | NSP14 enzyme activity, inhibitor |  | 0.1953 µM |  | inhibition | 1.4%
